Measured values pooled from the literature.
Every numbered part comes from another study and shows a few of its results, in no order.

Block 1
Target: Replicase polyprotein 1ab, main protease (rep, Severe acute respiratory syndrome coronavirus 2, UniProt P0DTD1)
Effect on: enzyme activity
Action: inhibitor
Concentration: 20 µM
Setting: primary screen
Compound	inhibition [%]
O=S(=O)(/N=C/c1c(O)ccc2ccccc12)c1cccs1	57.7
Cc1cc2nc3ccc(N(C)C)cc3[s+]c2cc1N	26.5
CCCc1cc(C(=N)S)ccn1	38.6

Block 2
Target: RNA binding protein fox-1 homolog 2, RRM domain, GST-SBP tag (RBFOX2, Homo sapiens, UniProt O43251-10, residues 100-194)
Technique: RNA Bind-n-Seq
Form: RNA
Matrix: in vitro
Concentration: 365 nM
Setting: natural RNA segment, single round, ends assumed
Relative to: no-protein control
Direction: higher = stronger binding
Target sequence (chain): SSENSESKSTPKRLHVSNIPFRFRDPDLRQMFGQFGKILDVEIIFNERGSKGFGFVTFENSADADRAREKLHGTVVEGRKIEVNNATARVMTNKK
Oligonucleotide	RBNS enrichment (R)
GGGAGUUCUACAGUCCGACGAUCCUGUCCCACUCCCACAUGUCUGGGCACCUGCCCUGGGCUGAGGCCAGGCUGCUCCAGGGGCCUCCUGCGCCCUCACCUGCCACAGAGCAACCCAGGUUAAAUACAGCCCAUGGAAUUCUCGGGUGCCAA	0.318
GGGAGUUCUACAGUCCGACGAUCAGUUUGUAACUUUUGGAACCGGAGAGCCCUGUUUCUUUGGCUGGGCGGUUAUGGCAGCUGAAGGCAAACUGUGAGGUUUGAGUGACGAGGUUCUCAUACCAGCACAUCACUGGAAUUCUCGGGUGCCAA	0.378
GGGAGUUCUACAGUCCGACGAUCUGUUCAAGUAUUAAUAUUGUUACAAGGGAAAAGUAAUAUUAGGAUUGUUUGCUCUCCUGUCUGCCCCAGCUGUUUCUGGCAUAUUAUUUUUUGUUAGCUGAGACAUUGACUGGAAUUCUCGGGUGCCAA	0.779
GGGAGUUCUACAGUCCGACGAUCUGUGUAUUCACGCAGUUACUCGCUUCCAUUUUUAUGACCUUUCAACUAUAGGUAAUAACUCUUAGAGAAAUUAAUUUAAUAUUAGAAUUUCUAUUAUGAAUCAUGUGAAAUGGAAUUCUCGGGUGCCAA	0.574
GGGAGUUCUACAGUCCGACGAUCAGCUUAAGCCUGUUGCUAAGAAAUUUAAUUUCUUAGCAACUUGUAAUUUAGUUAUCAAUUCAAUAUAGCUCUGUUGAUUAAAUAGCCGAUAGUAUUGUGGCUCUCCUCUUUGGAAUUCUCGGGUGCCAA	0.199
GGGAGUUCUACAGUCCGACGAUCGGCUGCAGAGGAGUCAGGCGGGAAGAGAGGAGUCGGAGAAGCACACAAGGUCCUUGUGCAGGAGUCCCCAGAGACCUAGCUGCAGCUCAGGCCGACUGAAGCAGGCCUGGUGGAAUUCUCGGGUGCCAA	0.826
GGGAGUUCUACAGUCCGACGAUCCAGAGCCAGACAAAGCUGUGAAUGGCCUAGGGGCUGAGUCCCACACCAGCUGUGAAUUCUCCUGCAGACAGGAGGGCCCUGGCUGUGCACCUGGGGAAGUGGUUGCCCUGUGGAAUUCUCGGGUGCCAA	0.499
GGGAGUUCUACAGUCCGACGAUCUGAACAGCCUCGAUUUUUAAGAAAAUUUAUGAAAUGUAUUUGUCUGUAAAAAUUGUAUAUAUUUUUACAGAAAGUCUAUUUCUUUGAACAUAAGAGGGAAGUCUUGGAUUUGGAAUUCUCGGGUGCCAA	0.688

Block 3
Target: Replicase polyprotein 1ab, nsp13 helicase (rep, Severe acute respiratory syndrome coronavirus 2, UniProt P0DTD1)
Action: inhibitor
Concentration: 20 µM
SMILES	inhibition [%]
O=c1[nH]c2ccccc2n1CCCN1CCN(C(c2ccccc2)c2ccccc2)CC1	11.2
Cc1cccc(N2CC(CO)OC2=O)c1 (centres unmarked)	7.09
CC1(C)[C@@H]2C[C@@H](O)[C@@](C)(O)[C@H]1C2	8.41
CCOC(=O)c1ccccc1OC(=O)CCCCCCCC(=O)Oc1ccccc1C(=O)OCC	-6.82
C=C[C@]1(C)C[C@@H](OC(=O)CSC(C)(C)CNC(=O)[C@H](N)C(C)C)[C@]2(C)[C@H](C)CC[C@]3(CCC(=O)[C@H]32)[C@@H](C)[C@@H]1O	5.16
C=CC[C@]1(O)CC[C@H]2[C@@H]3CCC4=CCCC[C@@H]4[C@H]3CC[C@@]21C	2.08
c1ccc2sc(SNC3CCCCC3)nc2c1	5.92
CO[C@@H](C(=O)N1Cc2[nH]nc(NC(=O)c3ccc(N4CCN(C)CC4)cc3)c2C1)c1ccccc1	4.88
N#Cc1cccc(-c2c[nH]c3ncnc(N4CCOCC4)c23)c1	-7.24
C[C@H]1NC(=O)NC1=O	-2
c1ccc2nc(C3=NCCN3)cnc2c1	4.49
Cc1cnc(Nc2ccc(F)cc2Cl)nc1-c1c[nH]c(C(=O)N[C@H](CO)c2cccc(Cl)c2)c1	11.7
C[C@@H](Oc1cc(-c2cnn(C3CCNCC3)c2)cnc1N)c1c(Cl)ccc(F)c1Cl	31.1
O=C(O)CNC(=O)c1ccccc1I	1.32
COc1ccc(C(C)=O)c(O)c1	0.31
CC(=O)Oc1c(C)cccc1C(=O)O	-0.06
CS(=O)(=O)c1ccc([C@@H](O)[C@@H](CO)NC(=O)C(Cl)Cl)cc1	3.55
COc1cc2c(cc1OC)[C@@]13CCN4CC5=CCO[C@H]6CC(=O)N2[C@H]1[C@H]6[C@H]5C[C@H]43	-30.8
CC(C)Oc1ccc(-c2cnc3c(-c4ccnc5ccccc45)cnn3c2)cc1	-2.9
COC(=O)C(c1ccccc1)C1CCCCN1 (centres unmarked)	3.03
O=C(Nc1cc(C(F)(F)F)cc(C(F)(F)F)c1)c1cc(Cl)ccc1O	-7.18
C=CC(=O)Nc1cccc(C)c1Nc1ncc2cc(-c3c(Cl)c(OC)cc(OC)c3Cl)ccc2n1	-0.3
CCn1c(N)c(C(=O)NC)c(=O)c2ccc(C#C[C@@](C)(O)COC)nc21	99.9
CC(=O)Nc1ccc(OC(C)=O)cc1	8.9
O=C(O)c1ccc2cc(-c3ccc(O)c(C45CC6CC(CC(C6)C4)C5)c3)ccc2c1	2.67

Block 4
Cell line: HEK-293T/ACE2
Concentration: 10 µM
Time: 16 h
Relative to: vehicle
Compound	viability [%]
CC(C)c1nc(CN(C)C(=O)N[C@H](C(=O)N[C@@H](Cc2ccccc2)C[C@H](O)[C@H](Cc2ccccc2)NC(=O)OCc2cncs2)C(C)C)cs1	103
CC[C@H]1OC(=O)[C@H](C)[C@@H](O[C@H]2C[C@@](C)(OC)[C@@H](O)[C@H](C)O2)[C@H](C)[C@@H](O[C@@H]2O[C@H](C)C[C@H](N(C)C)[C@H]2O)[C@](C)(O)C[C@@H](C)CN(C)[C@H](C)[C@@H](O)[C@]1(C)O	100
COc1cnc(NS(=O)(=O)c2ccc(N)cc2)nc1	99.1
O=C(O)c1ccc(-n2nc(-c3ccccc3O)nc2-c2ccccc2O)cc1	91

Block 5
Target: Interferon regulatory factor 7, full length, phosphomimetic (IRF7, Homo sapiens, UniProt Q92985, residues 1-503, S101K/S471D/S472D/S475D/S476D/S477D/S483D/S484D/S487D)
Technique: protein-binding microarray
Form: double-stranded DNA, one strand shown
Matrix: in vitro
Concentration: 250 nM
Setting: 60-bp whole probe
With: salmon DNA 0.4 mg/ml
Relative to: random background probes
Direction: higher = stronger binding
Constant ends, left off below: GCCTAGCAC … GTCTTGATTCGCTTGACGCTGCTG
Residues (chain): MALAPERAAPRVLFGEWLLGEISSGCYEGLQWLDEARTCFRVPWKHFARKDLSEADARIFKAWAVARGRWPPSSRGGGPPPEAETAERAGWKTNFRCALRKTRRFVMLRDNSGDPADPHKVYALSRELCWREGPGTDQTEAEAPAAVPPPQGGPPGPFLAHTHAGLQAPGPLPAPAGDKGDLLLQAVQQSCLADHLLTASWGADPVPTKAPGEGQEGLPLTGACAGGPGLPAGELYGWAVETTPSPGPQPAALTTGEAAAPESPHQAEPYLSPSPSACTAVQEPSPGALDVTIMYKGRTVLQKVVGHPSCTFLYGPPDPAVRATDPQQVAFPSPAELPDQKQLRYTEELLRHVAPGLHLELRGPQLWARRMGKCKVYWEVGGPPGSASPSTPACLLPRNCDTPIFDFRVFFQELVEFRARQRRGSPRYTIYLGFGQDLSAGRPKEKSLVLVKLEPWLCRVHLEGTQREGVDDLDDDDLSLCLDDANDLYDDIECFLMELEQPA
Oligonucleotide	log fluorescence [z-score]
TTGCGTCTGGGTGTTTTCTAGTGCTAG	-0.944
TTAGATATCGGGACTGGATTTGTGCTA	0.231
AAGCCAGGACGAGCTCGCCTGTGCTAG	-0.736
TTAGATTTCAGTTCCTATTAGTGCTAG	2.01
TAGAGTCTCAACCCCCAATAAGTGCTA	-0.198
TTATGTATCCTTATCCTTTAGTGCTAG	1.12
GTTTCATTCCTGATCTCTGGGTGCTAG	5.29
GGTGTTTTCTAAACCATTGTGTGCTAG	-0.0708

Block 6
Target: Sal-like protein 4, full length isoform A (SALL4, Homo sapiens, UniProt Q9UJQ4, residues 1-1053)
Sequence of UniProt Q9UJQ4 (whole entry, looked up): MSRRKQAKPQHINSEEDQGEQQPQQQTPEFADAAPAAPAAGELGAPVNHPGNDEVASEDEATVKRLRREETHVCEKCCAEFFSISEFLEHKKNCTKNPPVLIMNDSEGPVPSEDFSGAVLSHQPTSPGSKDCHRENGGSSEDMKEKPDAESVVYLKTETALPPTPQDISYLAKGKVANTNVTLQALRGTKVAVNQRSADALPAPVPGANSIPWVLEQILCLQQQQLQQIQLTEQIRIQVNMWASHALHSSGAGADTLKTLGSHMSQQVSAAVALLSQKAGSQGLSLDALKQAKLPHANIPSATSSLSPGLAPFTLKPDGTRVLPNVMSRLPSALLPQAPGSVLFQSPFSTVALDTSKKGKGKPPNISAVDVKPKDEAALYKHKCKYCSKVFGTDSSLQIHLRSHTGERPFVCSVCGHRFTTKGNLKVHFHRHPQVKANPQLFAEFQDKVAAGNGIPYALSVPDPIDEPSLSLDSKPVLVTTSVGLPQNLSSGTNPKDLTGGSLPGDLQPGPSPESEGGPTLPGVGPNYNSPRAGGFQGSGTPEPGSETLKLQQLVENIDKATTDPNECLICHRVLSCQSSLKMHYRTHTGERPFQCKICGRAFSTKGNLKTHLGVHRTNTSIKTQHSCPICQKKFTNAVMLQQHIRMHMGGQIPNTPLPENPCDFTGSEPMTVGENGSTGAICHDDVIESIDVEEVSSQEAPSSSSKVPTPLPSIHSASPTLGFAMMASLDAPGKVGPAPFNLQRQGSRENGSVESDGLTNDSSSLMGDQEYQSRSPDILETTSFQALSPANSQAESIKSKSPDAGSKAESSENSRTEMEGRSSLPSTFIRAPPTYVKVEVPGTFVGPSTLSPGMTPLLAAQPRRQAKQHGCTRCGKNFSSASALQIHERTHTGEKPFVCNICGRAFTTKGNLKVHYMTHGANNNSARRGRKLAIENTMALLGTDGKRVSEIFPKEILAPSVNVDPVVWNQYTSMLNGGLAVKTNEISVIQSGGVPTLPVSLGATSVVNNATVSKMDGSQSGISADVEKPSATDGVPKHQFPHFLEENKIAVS
Technique: universal PBM
Form: double-stranded DNA, one strand shown
Matrix: in vitro
Concentration: 600 nM
Setting: 8-mer, flanks averaged, mean of replicates
Direction: higher = stronger binding
Oligonucleotide	E-score
CCTGGATA	-0.112
ATGACACG	0.0516
AGGGAGAA	-0.0863
TCCCCCAA	-0.212
GGTGATAA	0.164
CGCTCTGA	-0.222
CGTGGGCC	-0.312
AAATGAGG	0.0362

Excerpt of the above (block 6):
Oligonucleotide	E-score
CCTGGATA	-0.112
ATGACACG	0.0516
AGGGAGAA	-0.0863
TCCCCCAA	-0.212
GGTGATAA	0.164
